# Measurements gathered from unrelated publications.
# Protocols differ between the studies behind these lines. Values joined by “and” are separate records of one study, mostly repeats; a detail may differ. ± gives the spread as reported.
Compound,cell line,assay,setting,how to read,measurement,result
O=C(C[Se]C(=O)c1cc2ccccc2s1)Nc1cccc(C(F)(F)F)c1,NCI60 melanoma subpanel,"cytotoxicity, inhibitor",five-dose,,CC50,6.15 µM
CC(C)[C@H](NC(=O)[C@H](CCCNC(=N)N)NC(=O)[C@@H]1CCCN1C(=O)[C@@H](NC(=O)[C@H](C)NC(=O)[C@H](Cc1ccc(O)cc1)NC(=O)[C@H](CCC(N)=O)NC(=O)[C@H](CCCCN)NC(=O)[C@H](CCCNC(=N)N)NC(=O)[C@@H]1CCCN1C(=O)[C@H](CCC(=O)O)NC(=O)[C@@H](NC(=O)[C@H](C)N)[C@@H](C)O)[C@@H](C)O)C(=O)N[C@@H](Cc1ccccc1)C(=O)N[C@@H](Cc1c[nH]c2ccccc12)C(=O)N[C@H](C(=O)N[C@@H](CC(=O)O)C(=O)N[C@@H](C)C(=O)N1CCC[C@H]1C(=O)NCC(=O)NCCOCCOCCOCCOCCOCCOCCOCCOCCOCCOCCOCCOCCC(=O)N[C@@H](CS)C(N)=O)[C@@H](C)O,H2126 lung adenocarcinoma,"cell binding, phage binding, measured: output/input phage","10 min, 37 °C",relative to: control phage,selectivity ratio,3.9 ± 0.4
CNC(=S)N/N=C/c1ccc(OCc2ccccc2)cc1,IMR-32,,"50 µg/mL, 24 h",higher = more activity,catalase activity (OD450),0.021 a.u.
CC[C@H](C)[C@H](NC(=O)[C@H](CC(C)C)NC(=O)[C@H](CC(=O)O)NC(=O)[C@H](CCCNC(=N)N)NC(=O)[C@H](Cc1c[nH]c2ccccc12)NC(=O)[C@@H](N)CC(C)C)C(=O)N[C@@H](CS)C(=O)N[C@@H](CC(C)C)C(=O)N[C@@H](CS)C(=O)N[C@@H](CCCNC(=N)N)C(=O)N[C@@H](CC(N)=O)C(=O)N[C@@H](CCCNC(=N)N)C(=O)N[C@@H](CCCNC(=N)N)C(=O)N[C@@H](CS)C(=O)N[C@@H](CC(N)=O)C(=O)N[C@@H](CCCNC(=N)N)C(=O)NCC(=O)N[C@@H](CCC(N)=O)C(=O)N[C@@H](CC(C)C)C(=O)N[C@@H](Cc1ccccc1)C(=O)N1CCC[C@H]1C(=O)NCC(=O)N[C@@H](Cc1c[nH]c2ccccc12)C(=O)N[C@@H](CS)C(=O)N1CCC[C@H]1C(=O)NCC(=O)N[C@@H](Cc1c[nH]c2ccccc12)C(=O)N[C@@H](Cc1c[nH]c2ccccc12)C(=O)N[C@@H](CC(C)C)C(=O)N[C@@H](CCCNC(=N)N)C(=O)N[C@@H](CS)C(=O)N[C@@H](CS)C(=O)N[C@@H](CCCNC(=N)N)C(=O)N[C@@H](CCCNC(=N)N)C(N)=O,RAW264.7,ELISA,"200 µg/mL, 12 h, with: LPS 0.1 µg/mL",relative to: LPS alone,IL-6 and TNF-alpha levels,decreased
CC(C)CC(O)(CC(C)C)c1cn(C(=O)N2CCCC2)nn1,mouse T-cells,"SILAC proteomics, measured: FBXO7","1 nM, 6 h, unit not given",relative to: DMSO,protein level,1.1
O=C(C[Se]C(=O)c1ccccc1)Nc1cccc(C(F)(F)F)c1,NCI60 melanoma subpanel,"total growth inhibition, inhibitor",five-dose,,mean TGI,5.22 µM
Cc1cc(=O)oc2cc(OCCCCCC[Se]C#N)ccc12,T47D,"cell growth or viability, SRB",,,GI50,3.1 µM
CSCC[C@H](NC(=O)[C@@H](NC(=O)[C@H](CCC(N)=O)NC(=O)[C@H](CO)NC(=O)[C@@H](N)C(C)C)[C@@H](C)O)C(=O)N[C@@H](CCCNC(=N)N)C(=O)N[C@@H](CCC(N)=O)C(=O)N[C@H](C(=O)N[C@@H](C)C(=O)N[C@H](C(=O)N1CCC[C@H]1C(=O)N[C@@H](CC(C)C)C(=O)N[C@@H](CC(C)C)C(=O)N[C@@H](Cc1c[nH]c2ccccc12)C(=O)N[C@@H](Cc1ccccc1)C(=O)N[C@@H](Cc1c[nH]c2ccccc12)C(=O)N[C@H](C(=O)NCC(=O)N[C@@H](CO)C(=O)N[C@@H](CC(C)C)C(=O)NCCOCCOCCOCCOCCOCCOCCOCCOCCOCCOCCOCCOCCC(=O)N[C@@H](CS)C(N)=O)[C@@H](C)O)C(C)C)[C@@H](C)O,HCC95,phage binding,,relative to: targeting over control phage,selectivity ratio,1.6 ± 0.55
Cc1cc(Oc2nc(N3CC[C@@H](c4ccncc4)C3)ncc2F)[nH]n1,OVCAR-3,cell proliferation,,,IC50,45.7 µM
CC1CCC2C(C)C(OC(=O)CCC(=O)N3CCC(Nc4ccc(S(=O)(=O)NC(=O)c5ccc(N6CCN(CC7=C(c8ccc(Cl)cc8)CC(C)(C)CC7)CC6)cc5Oc5cnc6[nH]ccc6c5)cc4[N+](=O)[O-])CC3)OC3OC4(C)CCC1C32OO4 (stereo not shown),THP-1,"annexin V/PI flow cytometry, measured: annexin V-/PI-","3.2 µM, 24 h",,viable cells,6.4%
CSCC[C@H](N)C(=O)N[C@@H](C)C(=O)N[C@@H](Cc1c[nH]c2ccccc12)C(=O)N[C@@H](Cc1c[nH]cn1)C(=O)N[C@@H](CC(=O)O)C(=O)N[C@@H](CC(=O)O)C(=O)N[C@@H](CCC(=O)O)C(=O)N[C@@H](CCC(=O)O)C(=O)N[C@@H](Cc1ccccc1)C(=O)N[C@@H](C)C(=O)N[C@@H](CCCNC(=N)N)C(=O)N[C@@H](CCCNC(=N)N)C(=O)N[C@@H](CCCNC(=N)N)C(=O)N[C@@H](CCCNC(=N)N)C(=O)NCCCCCC(=O)NCCCCC(NC(=O)CCCCCNC(=O)[C@H](CCCNC(=N)N)NC(=O)[C@H](CCCNC(=N)N)NC(=O)[C@H](CCCNC(=N)N)NC(=O)[C@H](CCCNC(=N)N)NC(=O)[C@H](C)NC(=O)[C@H](Cc1ccccc1)NC(=O)[C@H](CCC(=O)O)NC(=O)[C@H](CCC(=O)O)NC(=O)[C@H](CC(=O)O)NC(=O)[C@H](CC(=O)O)NC(=O)[C@H](Cc1c[nH]cn1)NC(=O)[C@H](Cc1c[nH]c2ccccc12)NC(=O)[C@H](C)NC(=O)[C@@H](N)CCSC)C(=O)NCCCCC(NC(=O)C(CCCCNC(=O)CCCCCNC(=O)[C@H](CCCNC(=N)N)NC(=O)[C@H](CCCNC(=N)N)NC(=O)[C@H](CCCNC(=N)N)NC(=O)[C@H](CCCNC(=N)N)NC(=O)[C@H](C)NC(=O)[C@H](Cc1ccccc1)NC(=O)[C@H](CCC(=O)O)NC(=O)[C@H](CCC(=O)O)NC(=O)[C@H](CC(=O)O)NC(=O)[C@H](CC(=O)O)NC(=O)[C@H](Cc1c[nH]cn1)NC(=O)[C@H](Cc1c[nH]c2ccccc12)NC(=O)[C@H](C)NC(=O)[C@@H](N)CCSC)NC(=O)CCCCCNC(=O)[C@H](CCCNC(=N)N)NC(=O)[C@H](CCCNC(=N)N)NC(=O)[C@H](CCCNC(=N)N)NC(=O)[C@H](CCCNC(=N)N)NC(=O)[C@H](C)NC(=O)[C@H](Cc1ccccc1)NC(=O)[C@H](CCC(=O)O)NC(=O)[C@H](CCC(=O)O)NC(=O)[C@H](CC(=O)O)NC(=O)[C@H](CC(=O)O)NC(=O)[C@H](Cc1c[nH]cn1)NC(=O)[C@H](Cc1c[nH]c2ccccc12)NC(=O)[C@H](C)NC(=O)[C@@H](N)CCSC)C(N)=O (stereo partly shown),mouse cells,co-immunoprecipitation,"concentration not given, unit not given, with: RANKL",relative to: RANKL alone,MKK3-TRAF6 association,0.814
CC(C)C[C@H](NC(=O)[C@H](CC(=O)O)NC(=O)CNC(=O)[C@@H](N)CCCNC(=N)N)C(=O)N[C@@H](C)C(=O)N[C@H](C(=O)N[C@@H](CC(C)C)C(=O)N[C@@H](CCCNC(=N)N)C(=O)N[C@@H](CCC(N)=O)C(=O)N[C@@H](CC(C)C)C(=O)N[C@@H](C)C(=O)N[C@@H](CCC(N)=O)C(=O)N[C@@H](CCC(=O)O)C(=O)N[C@@H](CC(=O)O)C(=O)NCC(=O)N[C@H](C(=O)N[C@H](C(=O)NCC(=O)N[C@H](C(=O)N[C@@H](CCCNC(=N)N)C(=O)NCCOCCOCCOCCOCCOCCOCCOCCOCCOCCOCCOCCOCCC(=O)N[C@@H](CS)C(N)=O)C(C)C)C(C)C)C(C)C)[C@@H](C)O,H2882 lung carcinoma,"cell binding, phage binding, measured: output/input phage","10 min, 37 °C",relative to: control phage,selectivity ratio,1.4 ± 0.22
NC(=S)N/N=C/c1ccc(OCc2cccc(F)c2)cc1,IMR-32,measured: GPX3,"500 µg/mL, 24 h",higher = more activity,glutathione peroxidase activity (OD450),0.363 a.u.
CC[C@H](C)[C@H](NC(=O)[C@H](C)NC(=O)CNC(=O)[C@H](Cc1ccccc1)NC(=O)[C@H](CC(N)=O)NC(=O)[C@H](CC(N)=O)NC(=O)[C@H](CO[C@@H]1O[C@H](CO)[C@@H](O)[C@H](O)[C@H]1NC(C)=O)NC(=O)[C@H](CO)NC(=O)[C@H](Cc1c[nH]cn1)NC(=O)[C@@H](NC(=O)[C@H](CC(C)C)NC(=O)[C@H](Cc1ccccc1)NC(=O)[C@H](CC(N)=O)NC(=O)[C@H](C)NC(=O)[C@@H](N)CC(C)C)C(C)C)C(=O)N[C@@H](CC(C)C)C(N)=O,INS-1,MTT,"5 equivalents to hIAPP, 24 h, with: hIAPP 1 µM",,viability,71.4% and 74.1%
CC(=O)NCSC[C@H](NC(=O)[C@@H]1CCCN1C(=O)[C@H](C)NC(=O)[C@@H](NC(=O)CNC(=O)[C@@H](NC(=O)[C@H](Cc1c[nH]c2ccccc12)NC(=O)[C@H](C)NC(=O)CNC(=O)[C@H](CO)NC(=O)[C@H](C)NC(=O)[C@@H]1CCCN1C(=O)[C@H](Cc1c[nH]c2ccccc12)NC(=O)[C@H](C)NC(=O)[C@H](C)NC(=O)[C@@H](N)Cc1ccc(O)cc1)[C@@H](C)O)[C@@H](C)O)C(=O)N[C@@H](CO)C(=O)N[C@@H](C)C(=O)NCC(=O)N[C@H](C(=O)NCCOCCOCCOCCOCCOCCOCCOCCOCCOCCOCCOCCOCCC(=O)N[C@@H](CS)C(N)=O)[C@@H](C)O,H1299 lung large cell carcinoma,"cell binding, phage binding, measured: output/input phage","10 min, 37 °C",relative to: control phage,selectivity ratio,83 ± 17
O=C(C[Se]C(=O)c1cccs1)Nc1cccc(C(F)(F)F)c1,NCI60 melanoma subpanel,"cytotoxicity, inhibitor",five-dose,,CC50,7.22 µM
CC(C)(C)C(=O)OCOP(=O)(OCOC(=O)C(C)(C)C)C1CCCN(O)C1=O (stereo not shown),LOX IMVI,,,,CC50,> 100 µM
COc1ccc2c(c1)c(CC(=O)[Se]CC(=O)Nc1cccc(C(F)(F)F)c1)c(C)n2C(=O)c1ccc(Cl)cc1,NCI60 melanoma subpanel,"cytotoxicity, inhibitor",five-dose,,CC50,10.8 µM
CSCC[C@H](NC(=O)CNC(=O)[C@H](CCSC)NC(=O)[C@H](CS)NC(=O)[C@@H](N)CS)C(=O)N[C@@H](CS)C(=O)NCC(=O)N[C@@H](CCCCN)C(=O)O,RAW264.7,"Western blot, measured: NF-κB over β-actin","0.1 and 1 µg/mL, with: LPS",,NF-κB level,decreased
